Measurements from different studies.
Every numbered part comes from another study and shows a few of its results, in no order.

Block 1
Target: RING finger protein unkempt homolog, zinc fingers 1-6, GST-SBP tag (UNK, Homo sapiens, UniProt Q9C0B0, residues 30-357)
Sequence of UniProt Q9C0B0 (30-357, looked up): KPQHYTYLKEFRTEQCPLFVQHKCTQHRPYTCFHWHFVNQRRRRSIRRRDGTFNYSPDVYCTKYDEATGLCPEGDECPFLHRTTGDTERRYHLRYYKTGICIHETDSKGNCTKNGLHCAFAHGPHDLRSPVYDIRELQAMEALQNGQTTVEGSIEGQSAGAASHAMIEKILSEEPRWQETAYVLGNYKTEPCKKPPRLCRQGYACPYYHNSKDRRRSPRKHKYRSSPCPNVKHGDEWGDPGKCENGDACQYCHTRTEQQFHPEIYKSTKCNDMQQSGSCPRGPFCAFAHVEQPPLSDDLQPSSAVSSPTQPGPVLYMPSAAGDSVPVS
Method: RNA Bind-n-Seq
Molecule type: RNA
Sample: in vitro
Concentration: not given
Setting: RNA with constant flanks, human and mouse sites, ends assumed
Reference: input RNA pool
Reading: higher = stronger binding
All sequences stand within: GGGAGUUCUACAGUCCGACGAUC … CAACAGAGGAUUGAGCAUCA
`AUGAUGGAAUUGCUUUUUCUUUUGUCUUGUGAUUUUUUUUUUUGAAGUGAAAUUUAACUUUUUGUGCAAGUAGUACUAUUAUACCCAUCUUCAGUGUCUUACUUGUACUGUAUCACAUUC` has a bound/input enrichment of 0.496 ratio.
For `AGCAGCAUCUCUAGGACACAAGGAACAGAAACCCAUUGUCAAGAGAGUUUUGUCUCGCCAGAACCUGGGAGCAGAGGACGGUCUGCUCCUGACCCCGACUUGGAAGAAUACAGCAAAGGA`, the bound/input enrichment was 0.159 ratio.
The bound/input enrichment of `CGUGGGAAAACUAGAGCUGAAACAAUGGGACCCAUGGGUUGGAUGAAGUGUCCUCUUGCUAGCACCAAUAAAAGAUUUCUAAUUAACACAAUUAAAAACACAUUGCCCUCUCAUAAAGAG` is reported as 21.5 ratio.
The bound/input enrichment of `GAAAAUAUAUUUAGUCGCAUAGUAGAUAUACAUGAACUUAGUGUAAAGUUACUGGGCCAUAUAGAAGAUACAGUAGAAAUGACAGAUGAAGGCAGUCCCCAUCCACUAGUAGGAAGCUGC` is reported as 4.73 ratio.
The bound/input enrichment of `GGGAUGACCUGCCAUUCAUGUACUAGCACUAUUGAAGGAAAAAUUGGGAAACUGCAAGGUGUUCAGCGAAUUAAAGUCUCCCUGGACAAUCAAGAAGCUACUAUUGUUUAUCAACCUCAU` is reported as 0.137 ratio.
With `CAGAACUGUGGUCCAAGUUUCCAGUCUCUGAUUGUGAAGAAGGAAUUUGUUAAAGAGAAUUUAGUUAAGCUACUGAAUCCCAGAUACAACUUGCCAUUAGACAUUCAGAAUAGAAUCUUG` the bound/input enrichment was 0.617 ratio.
With `AAGGAUUCAACACAUCCAGUGGAUUUUCUGGAUGCAUUCAGAACAUUUUACUUGGAUGGAUUAUUUACUGAUAUUACUCUUCAGUGUCCUUCAGGCAUAAUUUUCCAUUGUCACCGAGCC` the bound/input enrichment was 0.17 ratio.
The bound/input enrichment of `UUGUCUCCUGCAUUCCAUCAAGCACUACUCUCUUUUUGUCGAAUGUCAGCAGAUAGUCGUUUAGGAUACGAGGUGUCUCGUAUUGCAGACAGUGAAAAAAGCGUUAUGUUAAUGCUGGGA` is reported as 0.264 ratio.
For `UUCAACAGAAGAAAAGUAAUGGACUCCGAUGAAGACGACGCCGAUUACUAAGAGGACGCACUUAGACAGACUUCCGGAGCAGUGUCUAGGACAGUCACCACCUUGUAAAUGUUUACUUUG`, the bound/input enrichment was 0.12 ratio.
`CCCCAAAUCCCUCCCUGUUCUACACUGGGGACAGCAGAAUUUUCUCCCCGUCUUCCCCUUCCUGCCAUUUUCCCUCCCUUGAAAGGUUGACACUGGACAACCUUGGGGCAGCUGAGCCCU` has a bound/input enrichment of 1.02 ratio.
`UUUAUGCACAUACUUAAAGGACAGAAAUGUCUGGUAAAGUAAUUGUUAAAUAAUGAUAUGUAGCUUUUUAACUUUUUAAAUAAAUAAGAUUUUUUAAUGUGGGUCUCCCUCAGGGUUGUU` has a bound/input enrichment of 17.3 ratio.

Block 2
Target: Sal-like protein 4, full length isoform B (SALL4, Homo sapiens, UniProt Q9UJQ4-2, residues 1-616)
Method: universal PBM
Molecule type: double-stranded DNA, one strand shown
Sample: in vitro
Concentration: not given
Setting: 8-mer, flanks averaged, mean of replicates
Reading: higher = stronger binding
Target sequence (chain): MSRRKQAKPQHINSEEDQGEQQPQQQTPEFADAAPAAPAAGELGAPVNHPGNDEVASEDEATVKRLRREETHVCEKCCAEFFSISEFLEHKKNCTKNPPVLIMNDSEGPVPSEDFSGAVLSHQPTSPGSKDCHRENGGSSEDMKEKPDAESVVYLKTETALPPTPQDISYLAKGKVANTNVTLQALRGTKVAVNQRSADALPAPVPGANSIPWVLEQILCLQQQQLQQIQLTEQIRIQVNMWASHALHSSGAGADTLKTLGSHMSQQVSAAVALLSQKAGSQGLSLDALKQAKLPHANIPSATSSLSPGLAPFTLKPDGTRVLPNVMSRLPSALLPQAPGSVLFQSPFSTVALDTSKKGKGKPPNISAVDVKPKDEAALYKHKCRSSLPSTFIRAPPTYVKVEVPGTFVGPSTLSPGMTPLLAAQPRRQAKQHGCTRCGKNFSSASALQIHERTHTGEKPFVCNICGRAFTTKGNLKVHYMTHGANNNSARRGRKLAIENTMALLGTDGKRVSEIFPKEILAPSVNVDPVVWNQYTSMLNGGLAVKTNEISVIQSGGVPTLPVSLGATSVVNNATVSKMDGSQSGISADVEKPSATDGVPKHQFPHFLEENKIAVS
The E-score of `CTACCCTC` is reported as -0.131.
With `ATGAATCA` the E-score was 0.219.
For `GACACCTC`, the E-score was -0.243.
`GCTGTAAA` gave an E-score of 0.112.
`AAGCAGCG` gave an E-score of -0.151.
`AGGCTGTG` gave an E-score of -0.154.
`CCGCATCC` gave an E-score of -0.337.
The E-score of `CAGCCCAG` is reported as -0.395.
`CAGGGTTC` has an E-score of -0.206.
`AGGGAGCA` gave an E-score of -0.2.
`ACAGTGCT` has an E-score of -0.0986.
`CCAGCCTC` has an E-score of -0.252.
With `ACCTTCTG` the E-score was -0.0323.
For `CACAAGCA`, the E-score was -0.0372.
`AGATTACA` gave an E-score of 0.19.
The E-score of `CAACAGGA` is reported as -0.133.

Block 3
Target: RNA binding protein fox-1 homolog 2, RRM domain, GST-SBP tag (RBFOX2, Homo sapiens, UniProt O43251-10, residues 100-194)
Method: RNA Bind-n-Seq
Molecule type: RNA
Sample: in vitro
Concentration: 365 nM
Setting: natural RNA segment, single round, ends assumed
Reference: no-protein control
Reading: higher = stronger binding
All sequences stand within: GGGAGUUCUACAGUCCGACGAUC … UGGAAUUCUCGGGUGCCAA
Residues (chain): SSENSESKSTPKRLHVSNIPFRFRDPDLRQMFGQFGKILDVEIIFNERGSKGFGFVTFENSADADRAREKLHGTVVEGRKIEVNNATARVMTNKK
`AGUCACGUUUGCUUGGCUCUGGUACCAAAUAGUUGGGAUUACCGAAGAGUCCCCUUCCUUGCGUGUCAGCACGGAUGCUGUGACUGCCACCUGCGUCCUCGUCAAGUGCC`: “RBNS enrichment (R)” 0.516.
`UUUGAGAUUGGAAUUAUUAGACAAAUCUUCCAAAGAUGCACUUUAGGAAGUUGCUAUUGGCCACAUAACUAGGCUUCCAUGUUGUACAGCAGUGAGUGGUUCCAUAUGGC` — result for “RBNS enrichment (R)”: 0.411.
`AAAUUUGAGGAAAAUGUUCUCUCCUGGGCCAGCCUCACAGCUUGCGUUGGGUGUGUUGGAAUUGUUCUCUUCGGCCUUGUUCUGCCUUGUGAUCUUUUCAAUUCAGUGAA`: “RBNS enrichment (R)” 0.357.
`UCAAAACUGUGCUUCCAUUAUUAGUGCAAGAAACAGACAGGCUUUAAGGGGUAGAUGACGUGAAAUUUUGCAAGUCUUAAUUACAGCUGCAGAUGCAUGGGAUUCUGGAU`: “RBNS enrichment (R)” 1.98.
Under “RBNS enrichment (R)”, `UGACCAUAGCCUGUCACCACCCAACAUCACCACGGGCUGGGUUUUGUGUUUCACAUUGGGUAGUAUGCAUUCUGUCUGCACUGUCCCACCUUCUCAUCUCUACCUUUUAA` is recorded as 0.731.
`UGUGAACCCCCUGCAGCCCUGUGAGGCCCCCCGAAGCCCUGUGAGGCCCCCCGAAGCCCUGUGAACCACCUGCUGCCCUGUGAGGCCCCCAAAGCCCUGUGAACUGCCUG` — result for “RBNS enrichment (R)”: 0.644.
Under “RBNS enrichment (R)”, `GUGCUGCAGGAAGCAAAACUGUAGGGUCCUGAGGACACCGUGAGCCAGCCAGGCCUGGCCGCUGGGCCUGACCGGCCCCCCAGCCCCUACACCCCGCUUCUCCCGGACUC` is recorded as 0.418.
Under “RBNS enrichment (R)”, `AGCUCUGUCUGACCCCACACUCUCCAUUUUCCCCAGCCAAGGCAGACAGCAGCACUAGCAGACGGUCUUAGAACCUUCACACUGUCUCUACCACUACAUGGAAUGACAUA` is recorded as 0.509.
`UCUAAUGCUUCAAGUGUUGCUCUUGGAAAGCUGAUGAUGUCUCUUGUAGAAGAUGGACUCUGAAAAACAUUCCAGGAAACCAUGGCAGCAUGGAGAGCCUCUUAGUGAUU`: “RBNS enrichment (R)” 2.3.
`CUAAAUUAUUAUUUAGCUUCUCCCAUCGCCCACGAUGGAAUGUAAAAUAAAUUGGUUUUGUACUGGACAGCGUGCACGAGUUUUGGGGGAUUAUGCCCGCGGCAUUACAA` — result for “RBNS enrichment (R)”: 0.847.
Under “RBNS enrichment (R)”, `UGAAAAAAAAAAAAAUUAUUUUGCAUUCAGCAUGGACUCGACCAGGCAUCUAUGGAGAUUAUUUUUUUGCUUCAUUUUAUAAAGUUGUAUUUAGAAAAGUCUUAAGUAUU` is recorded as 0.778.
`CAUAACAUGCCUUUUUUGUAUCAAAUGUACUAAGACUUGCCUAUAUAUAGUGCCACUGUGCCUUCUCAUUUGUUUCUGAAUUUUCCACAUUUUAUUACAAAAUGUAGAAA` — result for “RBNS enrichment (R)”: 0.474.

Block 4
Target: Interferon regulatory factor 5, full length, phosphomimetic (IRF5, Homo sapiens, UniProt Q13568-2, residues 1-514, S451D/S453D/S456D/S462D)
Method: protein-binding microarray
Molecule type: double-stranded DNA, one strand shown
Sample: in vitro
Concentration: 940 nM top
Setting: 60-bp whole probe
Added: salmon DNA 0.4 mg/ml
Reference: random background probes
Reading: higher = stronger binding
All sequences stand within: GCCTAGCAC … GTCTTGATTCGCTTGACGCTGCTG
`GTCCACTCCAGACCGTTTGCGTGCTAG` — result for “fitted relative affinity”: 0.0974 z-score.
`AACGGTTTCGGACTGGGGACGTGCTAG`: “fitted relative affinity” 6.42 z-score.
`CTCCCTCTGTAAGTCAGCACGTGCTAG`: “fitted relative affinity” -0.147 z-score.
`TCAGAGTCCTGTTTGATACTGTGCTAG` — result for “fitted relative affinity”: -0.378 z-score.
`TCATTTATGCTTTCTTTAACTGTGCTA`: “fitted relative affinity” 1.43 z-score.
`TTTGATCTCAGTATCGATTAGTGCTAG` — result for “fitted relative affinity”: 5.23 z-score.
`GACGGTTTGGGTATCGGGACGTGCTAG` — result for “fitted relative affinity”: 1.42 z-score.
For `TCAATACTCGTTTACATACTGTGCTAG`, “fitted relative affinity” read 0.421 z-score.
For `TCATTTCTACTGTCTGTTACTGTGCTA`, “fitted relative affinity” read 1.15 z-score.
`TCACTTCTGGGCTGTTTGACTGTGCTA`: “fitted relative affinity” 0.57 z-score.
`TTAGAACTTAGTATCGATTAGTGCTAG`: “fitted relative affinity” 6.08 z-score.
For `GACGGATTCGGGTTTCGGGACGTGCTA`, “fitted relative affinity” read 2.65 z-score.
For `TTAGGTTTCGACACTAGGTTAGTGCTA`, “fitted relative affinity” read 8.36 z-score.
`TTAGAACTGAGGTTCGATTAGTGCTAG` — result for “fitted relative affinity”: -0.281 z-score.
For `GTCGGACTGGACTATCGGGACGTGCTA`, “fitted relative affinity” read -0.793 z-score.
For `GACGAATTCAGACTGGAGACGTGCTAG`, “fitted relative affinity” read -0.374 z-score.
`TTAGGACTGGACTATAGGTTAGTGCTA`: “fitted relative affinity” -0.31 z-score.

Block 5
Target: Histone acetyltransferase KAT6A, winged helix 1, GST fusion (KAT6A, Homo sapiens, UniProt Q92794, residues 1-85)
Method: protein binding microarray
Molecule type: double-stranded DNA, one strand shown
Sample: in vitro
Concentration: not given
Setting: 8-mer, flanks averaged, mean of 2 arrays, mostly near background
Reference: not given
Reading: higher = stronger binding
Construct (chain): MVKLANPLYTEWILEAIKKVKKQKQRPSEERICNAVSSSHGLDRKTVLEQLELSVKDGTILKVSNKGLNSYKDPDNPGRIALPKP
For `ATGATATA`, the E-score was -0.0897.
The E-score of `GCCCCGTA` is reported as 0.227.
With `AATGGTGG` the E-score was -0.0595.
`AAAGCCGA` has an E-score of 0.143.
The E-score of `AACGGCGT` is reported as 0.332.
For `CACGAAGC`, the E-score was 0.0244.
For `ATTGATCA`, the E-score was -0.238.
`ACGGTGCG` gave an E-score of 0.267.
`CTACTATA` gave an E-score of -0.116.
`GACGGCCA` gave an E-score of 0.344.
The E-score of `ACCTAACG` is reported as -0.029.
The E-score of `CAGGCCCG` is reported as 0.252.
With `CGAGCGCA` the E-score was 0.257.
The E-score of `GAGTCGAC` is reported as 0.023.
`ACCCCTAA` has an E-score of -0.148.
`AGTATTGC` has an E-score of -0.0695.
With `ACCTACGA` the E-score was -0.166.
With `GATCCCGC` the E-score was 0.346.
`ACTGACTG` gave an E-score of -0.04.
The E-score of `GTTGGCAA` is reported as -0.262.
The E-score of `ACTCGACC` is reported as -0.0509.
`AATATGAT` gave an E-score of -0.116.
The E-score of `GGGGCACA` is reported as -0.106.
The E-score of `GTCGCAAC` is reported as 0.122.
`ATTTCGGG` gave an E-score of -0.101.
